Experimental data from different studies.
Each line is one published result; not all experiments were run side by side. Values joined by “and” are separate records of one study, mostly repeats; a detail may differ. ± gives the spread as reported.
nadD: Probable nicotinate-nucleotide adenylyltransferase (nadD, Mycobacterium tuberculosis, UniProt P9WJJ5)
UniProt P9WJJ5, sequence (whole entry, looked up): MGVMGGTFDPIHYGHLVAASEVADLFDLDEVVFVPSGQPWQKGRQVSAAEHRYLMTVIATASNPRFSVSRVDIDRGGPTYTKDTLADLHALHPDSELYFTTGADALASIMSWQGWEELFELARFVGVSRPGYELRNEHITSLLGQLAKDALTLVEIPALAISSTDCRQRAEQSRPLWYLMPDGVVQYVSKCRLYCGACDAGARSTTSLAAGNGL
SLC6A4: Sodium-dependent serotonin transporter (SLC6A4, Homo sapiens, UniProt P31645)
UniProt P31645, sequence (whole entry, looked up): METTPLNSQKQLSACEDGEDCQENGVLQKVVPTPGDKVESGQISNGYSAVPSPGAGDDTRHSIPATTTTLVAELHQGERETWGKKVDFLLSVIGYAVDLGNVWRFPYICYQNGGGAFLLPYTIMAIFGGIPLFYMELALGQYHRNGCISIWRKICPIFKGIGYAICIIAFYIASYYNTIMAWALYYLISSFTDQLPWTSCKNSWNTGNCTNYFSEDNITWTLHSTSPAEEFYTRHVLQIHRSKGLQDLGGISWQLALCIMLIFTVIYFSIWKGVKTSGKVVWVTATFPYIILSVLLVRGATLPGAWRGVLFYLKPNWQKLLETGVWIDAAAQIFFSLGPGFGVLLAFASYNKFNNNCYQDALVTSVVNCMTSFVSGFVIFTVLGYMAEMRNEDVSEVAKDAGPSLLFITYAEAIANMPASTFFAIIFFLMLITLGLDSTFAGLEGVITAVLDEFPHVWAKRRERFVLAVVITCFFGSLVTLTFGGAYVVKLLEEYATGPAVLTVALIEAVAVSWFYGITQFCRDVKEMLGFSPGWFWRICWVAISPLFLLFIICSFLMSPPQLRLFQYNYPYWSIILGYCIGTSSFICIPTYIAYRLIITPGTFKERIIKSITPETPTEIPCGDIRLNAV
HTR2C: 5-hydroxytryptamine receptor 2C (HTR2C, Homo sapiens, UniProt P28335)
UniProt P28335, sequence (whole entry, looked up): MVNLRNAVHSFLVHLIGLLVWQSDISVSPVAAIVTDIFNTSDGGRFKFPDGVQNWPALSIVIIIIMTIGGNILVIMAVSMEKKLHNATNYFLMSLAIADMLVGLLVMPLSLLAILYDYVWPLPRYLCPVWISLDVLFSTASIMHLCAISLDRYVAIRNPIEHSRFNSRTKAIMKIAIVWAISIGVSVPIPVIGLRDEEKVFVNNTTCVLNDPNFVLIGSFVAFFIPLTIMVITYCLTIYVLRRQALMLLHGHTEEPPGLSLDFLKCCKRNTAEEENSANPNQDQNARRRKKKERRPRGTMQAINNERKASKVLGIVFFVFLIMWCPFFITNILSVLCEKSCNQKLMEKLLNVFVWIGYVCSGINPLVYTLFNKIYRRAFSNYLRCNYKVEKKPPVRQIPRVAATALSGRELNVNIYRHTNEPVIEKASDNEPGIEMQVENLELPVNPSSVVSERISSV
UniProt P23977, sequence (whole entry, looked up): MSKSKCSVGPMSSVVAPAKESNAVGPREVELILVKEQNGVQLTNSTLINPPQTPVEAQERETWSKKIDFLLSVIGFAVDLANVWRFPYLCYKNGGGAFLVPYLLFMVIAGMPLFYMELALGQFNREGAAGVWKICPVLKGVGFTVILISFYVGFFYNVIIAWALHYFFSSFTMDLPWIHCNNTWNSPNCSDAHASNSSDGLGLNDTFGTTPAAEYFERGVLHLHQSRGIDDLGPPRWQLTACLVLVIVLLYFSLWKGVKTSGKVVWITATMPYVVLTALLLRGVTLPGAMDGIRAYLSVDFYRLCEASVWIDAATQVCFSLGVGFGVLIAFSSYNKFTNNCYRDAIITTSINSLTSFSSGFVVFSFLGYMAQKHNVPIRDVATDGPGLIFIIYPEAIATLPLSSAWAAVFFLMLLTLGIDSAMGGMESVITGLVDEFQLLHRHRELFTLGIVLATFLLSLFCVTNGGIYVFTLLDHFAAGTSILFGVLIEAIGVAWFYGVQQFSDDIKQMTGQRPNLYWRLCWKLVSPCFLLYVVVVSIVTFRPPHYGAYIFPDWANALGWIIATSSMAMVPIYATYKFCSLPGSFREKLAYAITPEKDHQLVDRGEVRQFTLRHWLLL
UniProt P43681, sequence (whole entry, unmodified, looked up): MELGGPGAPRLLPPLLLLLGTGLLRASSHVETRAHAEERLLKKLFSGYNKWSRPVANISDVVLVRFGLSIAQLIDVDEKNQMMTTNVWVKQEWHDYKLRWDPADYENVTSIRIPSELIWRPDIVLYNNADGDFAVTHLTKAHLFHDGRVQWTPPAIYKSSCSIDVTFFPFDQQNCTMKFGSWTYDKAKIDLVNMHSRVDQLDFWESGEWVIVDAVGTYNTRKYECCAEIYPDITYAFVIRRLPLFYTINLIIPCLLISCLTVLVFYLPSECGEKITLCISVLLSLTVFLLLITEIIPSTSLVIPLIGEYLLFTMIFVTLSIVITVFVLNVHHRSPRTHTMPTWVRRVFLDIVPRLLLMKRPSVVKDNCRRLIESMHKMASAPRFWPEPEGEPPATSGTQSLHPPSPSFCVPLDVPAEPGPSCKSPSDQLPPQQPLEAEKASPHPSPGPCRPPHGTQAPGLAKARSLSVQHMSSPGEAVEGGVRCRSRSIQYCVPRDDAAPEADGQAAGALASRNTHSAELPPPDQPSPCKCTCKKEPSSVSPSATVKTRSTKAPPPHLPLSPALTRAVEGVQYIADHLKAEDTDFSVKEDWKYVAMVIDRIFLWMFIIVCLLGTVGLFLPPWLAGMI
UniProt Q7RTT9, sequence (whole entry, looked up): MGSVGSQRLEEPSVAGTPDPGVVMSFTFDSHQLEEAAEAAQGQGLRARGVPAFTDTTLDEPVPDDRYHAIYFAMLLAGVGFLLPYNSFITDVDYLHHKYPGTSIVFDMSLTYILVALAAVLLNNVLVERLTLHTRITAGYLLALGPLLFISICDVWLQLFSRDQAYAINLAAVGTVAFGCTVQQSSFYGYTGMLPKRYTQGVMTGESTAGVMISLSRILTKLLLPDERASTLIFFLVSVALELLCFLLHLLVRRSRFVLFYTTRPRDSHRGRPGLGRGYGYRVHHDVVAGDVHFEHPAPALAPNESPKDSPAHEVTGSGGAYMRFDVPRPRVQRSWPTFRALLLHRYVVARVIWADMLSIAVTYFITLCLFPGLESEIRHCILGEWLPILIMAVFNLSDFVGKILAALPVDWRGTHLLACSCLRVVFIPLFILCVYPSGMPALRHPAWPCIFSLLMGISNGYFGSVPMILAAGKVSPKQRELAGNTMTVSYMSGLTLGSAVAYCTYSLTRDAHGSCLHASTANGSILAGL
UniProt P10275, sequence (whole entry, looked up): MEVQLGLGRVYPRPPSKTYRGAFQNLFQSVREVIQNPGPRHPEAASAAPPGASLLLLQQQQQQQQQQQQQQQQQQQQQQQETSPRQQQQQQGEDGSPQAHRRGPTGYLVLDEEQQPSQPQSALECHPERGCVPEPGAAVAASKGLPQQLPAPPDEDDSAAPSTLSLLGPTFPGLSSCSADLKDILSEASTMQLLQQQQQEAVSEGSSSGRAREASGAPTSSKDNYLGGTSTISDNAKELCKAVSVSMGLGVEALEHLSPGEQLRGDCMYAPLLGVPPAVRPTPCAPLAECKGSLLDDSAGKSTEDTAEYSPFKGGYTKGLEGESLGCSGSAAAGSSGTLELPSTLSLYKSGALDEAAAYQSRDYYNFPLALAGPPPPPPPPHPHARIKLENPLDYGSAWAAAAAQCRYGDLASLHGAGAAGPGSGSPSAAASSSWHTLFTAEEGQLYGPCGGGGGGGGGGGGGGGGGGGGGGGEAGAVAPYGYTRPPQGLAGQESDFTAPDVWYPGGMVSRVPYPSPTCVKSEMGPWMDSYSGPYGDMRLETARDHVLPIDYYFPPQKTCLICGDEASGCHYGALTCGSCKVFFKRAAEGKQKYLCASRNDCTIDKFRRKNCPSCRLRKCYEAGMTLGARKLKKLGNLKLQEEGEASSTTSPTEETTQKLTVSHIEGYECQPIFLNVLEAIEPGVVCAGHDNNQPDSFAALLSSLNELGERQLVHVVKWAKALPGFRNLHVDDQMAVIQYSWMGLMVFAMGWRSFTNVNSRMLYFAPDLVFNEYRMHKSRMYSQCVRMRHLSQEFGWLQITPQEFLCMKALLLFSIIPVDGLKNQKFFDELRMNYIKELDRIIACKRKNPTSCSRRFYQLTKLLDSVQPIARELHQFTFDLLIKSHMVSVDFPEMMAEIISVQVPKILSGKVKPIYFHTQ
UniProt Q61327, sequence (whole entry, looked up): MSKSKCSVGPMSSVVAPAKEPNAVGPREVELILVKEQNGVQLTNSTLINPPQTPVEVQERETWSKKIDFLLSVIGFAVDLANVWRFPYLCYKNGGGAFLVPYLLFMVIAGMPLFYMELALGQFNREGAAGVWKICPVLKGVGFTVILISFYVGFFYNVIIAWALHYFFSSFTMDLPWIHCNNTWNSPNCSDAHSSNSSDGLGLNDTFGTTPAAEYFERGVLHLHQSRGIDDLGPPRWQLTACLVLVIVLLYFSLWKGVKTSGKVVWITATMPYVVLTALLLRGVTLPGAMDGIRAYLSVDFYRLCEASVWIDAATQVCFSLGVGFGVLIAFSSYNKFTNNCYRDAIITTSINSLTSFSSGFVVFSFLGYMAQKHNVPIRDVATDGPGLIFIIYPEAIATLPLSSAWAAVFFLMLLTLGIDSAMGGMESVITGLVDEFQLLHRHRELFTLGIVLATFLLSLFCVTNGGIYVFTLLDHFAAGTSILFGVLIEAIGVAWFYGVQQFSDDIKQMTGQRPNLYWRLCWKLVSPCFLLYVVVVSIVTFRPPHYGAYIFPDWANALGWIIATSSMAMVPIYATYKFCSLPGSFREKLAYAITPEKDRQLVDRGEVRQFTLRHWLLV

SMILES	target or system	test	system	conditions	scale	quantity	result
CCn1cc(C(=O)Nc2cc(C)ccn2)c(=O)c2cc(F)c(N3CCN(C(=O)c4ccco4)CC3)cc21	nadD	enzyme activity, inhibitor, released pyrophosphate				IC50	25.7 ± 9.2 µM
CCC1=C[C@@H]2CN3CCc4c([nH]c5ccccc45)[C@@](C(=O)OC)(C2)[C@@H]13	CHRNA7 (Homo sapiens, UniProt P36544)	calcium influx, antagonist	GH3-hα7	5 min, added: (±)-epibatidine 1.0 µM		IC50	21.8 ± 2.5 µM
CCC[C@@H](C(=O)c1ccc2c(c1)OCO2)N1CCCC1	Slc6a3 (Rattus norvegicus, UniProt P23977)	transporter uptake, inhibitor, radiometric				IC50	0.00213 µM
CCCC(NC)C(=O)c1ccc(Cl)cc1 (stereo not drawn)	SLC6A4	transporter uptake, inhibitor, radiometric				IC50	0.61 µM
CCCCCNC(=O)c1cn(CC)c2cc(N3CCN(C(=O)c4ccco4)CC3)c(F)cc2c1=O	nadD	enzyme activity, inhibitor, released pyrophosphate				IC50	34 ± 8.7 µM
CNC(C)C(=O)c1ccc(F)cc1 (stereo not drawn)	HTR2C	inositol phosphate, antagonist				IC50	> 1000 µM
CN[C@@](C)(C[18F])C(=O)O	A549 tumour model		host not given, lung	30 min, tumour-bearing		tracer uptake	2.9 %ID/g
CCN(CC)CCNC(=O)c1cn(CC)c2cc(N3CCN(C(=O)c4ccco4)CC3)c(F)cc2c1=O	nadD	enzyme activity, inhibitor, released pyrophosphate				IC50	> 100 µM
CCCC(NCC)C(=O)c1ccc2c(c1)OCO2 (stereo not drawn)	SLC6A4	transporter uptake, inhibitor, radiometric				IC50	0.46 µM
CCC(NC)C(=O)c1ccc2c(c1)OCO2 (stereo not drawn)	HTR2C	inositol phosphate, antagonist				IC50	> 1000 µM
CCC1(c2ccccc2)CCC(=O)NC1=O (stereo not drawn)	Androgen receptor (AR, Homo sapiens, UniProt P10275)					IC50	no effect
Ic1cncc(OC[C@@H]2CCN2)c1	Neuronal acetylcholine receptor; alpha4/beta2 (Homo sapiens, UniProt P17787+P43681, S138R)	binding, inhibitor		5 h, room temperature, added: 5 nM [3H]epibatidine		IC50	0.0112 ± 0.00068 µM
COC(=O)[C@H]1[C@@H](c2ccc(Cl)cc2)C[C@H]2CC[C@H]1N2C	Slc6a3 (Mus musculus, UniProt Q61327)	transporter uptake, inhibitor, radiometric				IC50	0.00091 µM
CCn1cc(C(=O)NCCc2ccccc2)c(=O)c2cc(F)c(N3CCN(C(=O)c4ccco4)CC3)cc21	nadD	enzyme activity, inhibitor, released pyrophosphate				IC50	29.6 ± 6.2 µM
COC1C(O)C(n2ccc(=O)[nH]c2=O)OC1C(OC1OC(C(=O)Nc2ccc(F)c(F)c2)=CC(O)C1O)C(N)=O (stereo not drawn)	bacterial RNA polymerase	enzyme activity, inhibitor			greater than highest tested	IC50	> 100 µM
O=c1[nH]c2ccccc2n1C1CCN(CCCC(c2ccc(F)cc2)c2ccc(F)cc2)CC1	CACNA1H (Homo sapiens, UniProt O95180)	calcium current, blocker, automated patch clamp	holding potential -90 mV	last pulse of train, added: 1 Hz pulse train		IC50	5.5 ± 1.3 µM
c1ccc(CCCN2CCN(CCOC(c3ccccc3)c3ccccc3)CC2)cc1	SLC29A4 (Homo sapiens, UniProt Q7RTT9)	transporter uptake, inhibitor, radiometric		pH 7.4		IC50	30 µM
Cc1n(CC(=O)OC2CC(C)CCC2C(C)C)c2ccccc2[n+]1C (stereo not drawn)	nadD	released PPi detection				IC50	~100 µM and 111 µM

Repeated from above:
SMILES	target or system	test	system	conditions	scale	quantity	result
COC(=O)[C@H]1[C@@H](c2ccc(Cl)cc2)C[C@H]2CC[C@H]1N2C	Slc6a3 (Mus musculus, UniProt Q61327)	transporter uptake, inhibitor, radiometric				IC50	0.00091 µM
